Assay results gathered from unrelated publications.
Each numbered part is a random draw from the data of one study; scales do not carry over between parts.
Chain of UniProt P35968 (whole entry, looked up): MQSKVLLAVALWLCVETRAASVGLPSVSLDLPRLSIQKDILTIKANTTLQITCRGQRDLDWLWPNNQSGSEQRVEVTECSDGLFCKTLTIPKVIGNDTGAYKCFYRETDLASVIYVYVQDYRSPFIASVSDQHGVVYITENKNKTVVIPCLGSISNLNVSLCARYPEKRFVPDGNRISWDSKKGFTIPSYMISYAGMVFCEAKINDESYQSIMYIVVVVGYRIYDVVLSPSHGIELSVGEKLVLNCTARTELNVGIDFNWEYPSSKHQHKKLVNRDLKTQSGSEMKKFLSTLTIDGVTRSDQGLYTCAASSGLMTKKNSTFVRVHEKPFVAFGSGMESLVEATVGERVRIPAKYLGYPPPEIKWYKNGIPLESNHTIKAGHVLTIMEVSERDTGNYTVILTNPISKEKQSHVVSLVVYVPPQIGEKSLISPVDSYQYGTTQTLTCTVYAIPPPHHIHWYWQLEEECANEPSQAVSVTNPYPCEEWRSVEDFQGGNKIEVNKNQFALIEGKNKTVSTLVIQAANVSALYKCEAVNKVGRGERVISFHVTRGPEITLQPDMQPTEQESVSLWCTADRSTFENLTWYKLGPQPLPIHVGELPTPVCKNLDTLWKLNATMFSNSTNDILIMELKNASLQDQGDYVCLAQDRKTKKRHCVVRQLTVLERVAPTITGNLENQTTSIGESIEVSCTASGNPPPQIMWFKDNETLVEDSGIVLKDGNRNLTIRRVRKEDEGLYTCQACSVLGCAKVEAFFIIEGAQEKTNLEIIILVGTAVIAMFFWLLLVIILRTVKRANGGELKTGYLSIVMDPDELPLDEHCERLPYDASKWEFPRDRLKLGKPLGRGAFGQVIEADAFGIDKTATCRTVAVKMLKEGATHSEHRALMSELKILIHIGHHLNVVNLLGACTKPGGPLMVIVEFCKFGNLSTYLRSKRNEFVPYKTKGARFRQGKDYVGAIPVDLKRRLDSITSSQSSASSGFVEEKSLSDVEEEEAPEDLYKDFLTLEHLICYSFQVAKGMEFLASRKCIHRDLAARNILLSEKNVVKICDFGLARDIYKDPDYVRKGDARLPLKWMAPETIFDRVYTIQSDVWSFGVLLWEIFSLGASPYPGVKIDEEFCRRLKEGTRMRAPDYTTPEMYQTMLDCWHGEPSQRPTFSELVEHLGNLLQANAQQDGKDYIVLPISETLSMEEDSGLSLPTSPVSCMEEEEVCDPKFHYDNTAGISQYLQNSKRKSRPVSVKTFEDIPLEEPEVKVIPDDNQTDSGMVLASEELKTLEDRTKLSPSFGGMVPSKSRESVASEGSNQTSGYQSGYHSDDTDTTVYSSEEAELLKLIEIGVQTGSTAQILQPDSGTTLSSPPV
Chain of UniProt Q9NRM7 (whole entry, looked up): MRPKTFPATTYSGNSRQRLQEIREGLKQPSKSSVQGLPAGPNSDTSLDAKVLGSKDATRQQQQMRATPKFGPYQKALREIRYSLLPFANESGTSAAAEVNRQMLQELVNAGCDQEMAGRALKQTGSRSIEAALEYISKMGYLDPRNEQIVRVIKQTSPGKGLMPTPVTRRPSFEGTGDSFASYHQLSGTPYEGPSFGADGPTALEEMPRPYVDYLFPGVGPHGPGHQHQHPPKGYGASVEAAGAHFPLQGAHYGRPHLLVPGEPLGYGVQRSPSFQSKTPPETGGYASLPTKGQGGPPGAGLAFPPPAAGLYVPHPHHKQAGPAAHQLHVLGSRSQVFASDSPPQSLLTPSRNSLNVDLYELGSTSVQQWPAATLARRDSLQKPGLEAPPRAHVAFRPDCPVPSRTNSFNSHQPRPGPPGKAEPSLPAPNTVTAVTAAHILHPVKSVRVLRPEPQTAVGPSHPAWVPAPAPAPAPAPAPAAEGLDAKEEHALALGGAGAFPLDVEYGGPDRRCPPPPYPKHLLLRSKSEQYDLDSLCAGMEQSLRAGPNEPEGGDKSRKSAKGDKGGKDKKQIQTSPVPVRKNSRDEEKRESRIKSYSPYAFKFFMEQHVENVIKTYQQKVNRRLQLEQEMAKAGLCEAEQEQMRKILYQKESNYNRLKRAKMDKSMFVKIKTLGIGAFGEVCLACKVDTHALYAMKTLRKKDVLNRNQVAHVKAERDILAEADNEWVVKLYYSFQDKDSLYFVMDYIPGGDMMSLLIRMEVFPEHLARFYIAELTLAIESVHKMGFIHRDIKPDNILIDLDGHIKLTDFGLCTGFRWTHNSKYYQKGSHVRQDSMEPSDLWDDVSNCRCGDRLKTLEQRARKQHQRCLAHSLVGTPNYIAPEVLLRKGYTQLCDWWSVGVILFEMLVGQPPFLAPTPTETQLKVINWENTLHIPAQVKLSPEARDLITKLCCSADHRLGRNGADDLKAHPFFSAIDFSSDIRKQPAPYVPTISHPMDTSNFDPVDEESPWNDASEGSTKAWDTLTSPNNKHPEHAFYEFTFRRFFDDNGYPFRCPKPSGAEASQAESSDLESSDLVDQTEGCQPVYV
Chain of UniProt P08069 (whole entry, looked up): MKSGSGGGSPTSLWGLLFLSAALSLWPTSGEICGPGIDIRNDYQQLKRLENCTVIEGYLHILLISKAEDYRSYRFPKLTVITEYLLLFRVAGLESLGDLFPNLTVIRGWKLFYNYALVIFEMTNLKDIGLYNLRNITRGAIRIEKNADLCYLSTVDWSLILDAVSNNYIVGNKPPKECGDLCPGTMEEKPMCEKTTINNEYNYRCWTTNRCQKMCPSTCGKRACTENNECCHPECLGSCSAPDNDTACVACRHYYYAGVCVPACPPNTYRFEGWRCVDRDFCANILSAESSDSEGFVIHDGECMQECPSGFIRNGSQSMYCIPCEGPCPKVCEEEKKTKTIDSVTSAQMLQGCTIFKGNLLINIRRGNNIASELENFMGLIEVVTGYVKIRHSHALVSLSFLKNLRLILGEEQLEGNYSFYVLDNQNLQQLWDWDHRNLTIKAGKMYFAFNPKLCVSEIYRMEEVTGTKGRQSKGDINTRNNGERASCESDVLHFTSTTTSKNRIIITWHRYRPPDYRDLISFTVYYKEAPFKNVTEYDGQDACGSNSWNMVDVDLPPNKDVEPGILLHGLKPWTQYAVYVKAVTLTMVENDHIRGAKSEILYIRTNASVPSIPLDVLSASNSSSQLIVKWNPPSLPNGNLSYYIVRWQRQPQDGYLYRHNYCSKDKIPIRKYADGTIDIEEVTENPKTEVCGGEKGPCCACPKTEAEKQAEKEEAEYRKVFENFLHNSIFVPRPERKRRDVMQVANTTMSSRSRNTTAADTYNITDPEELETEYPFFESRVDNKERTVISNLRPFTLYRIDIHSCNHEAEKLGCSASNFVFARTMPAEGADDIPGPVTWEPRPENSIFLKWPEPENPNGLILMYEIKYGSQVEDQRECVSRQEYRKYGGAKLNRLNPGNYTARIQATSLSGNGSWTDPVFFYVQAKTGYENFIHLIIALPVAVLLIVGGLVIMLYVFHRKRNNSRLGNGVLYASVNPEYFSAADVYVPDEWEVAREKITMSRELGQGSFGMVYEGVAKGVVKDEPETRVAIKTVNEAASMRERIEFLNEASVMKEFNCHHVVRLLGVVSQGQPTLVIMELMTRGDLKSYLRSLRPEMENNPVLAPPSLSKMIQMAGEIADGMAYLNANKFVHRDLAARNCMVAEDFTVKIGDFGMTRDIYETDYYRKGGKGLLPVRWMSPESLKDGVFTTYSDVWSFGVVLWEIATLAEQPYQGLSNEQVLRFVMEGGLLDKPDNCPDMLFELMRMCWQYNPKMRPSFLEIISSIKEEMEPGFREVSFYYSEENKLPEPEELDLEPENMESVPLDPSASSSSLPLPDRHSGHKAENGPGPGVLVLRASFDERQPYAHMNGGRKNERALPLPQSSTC
Chain of UniProt P42684 (whole entry, looked up): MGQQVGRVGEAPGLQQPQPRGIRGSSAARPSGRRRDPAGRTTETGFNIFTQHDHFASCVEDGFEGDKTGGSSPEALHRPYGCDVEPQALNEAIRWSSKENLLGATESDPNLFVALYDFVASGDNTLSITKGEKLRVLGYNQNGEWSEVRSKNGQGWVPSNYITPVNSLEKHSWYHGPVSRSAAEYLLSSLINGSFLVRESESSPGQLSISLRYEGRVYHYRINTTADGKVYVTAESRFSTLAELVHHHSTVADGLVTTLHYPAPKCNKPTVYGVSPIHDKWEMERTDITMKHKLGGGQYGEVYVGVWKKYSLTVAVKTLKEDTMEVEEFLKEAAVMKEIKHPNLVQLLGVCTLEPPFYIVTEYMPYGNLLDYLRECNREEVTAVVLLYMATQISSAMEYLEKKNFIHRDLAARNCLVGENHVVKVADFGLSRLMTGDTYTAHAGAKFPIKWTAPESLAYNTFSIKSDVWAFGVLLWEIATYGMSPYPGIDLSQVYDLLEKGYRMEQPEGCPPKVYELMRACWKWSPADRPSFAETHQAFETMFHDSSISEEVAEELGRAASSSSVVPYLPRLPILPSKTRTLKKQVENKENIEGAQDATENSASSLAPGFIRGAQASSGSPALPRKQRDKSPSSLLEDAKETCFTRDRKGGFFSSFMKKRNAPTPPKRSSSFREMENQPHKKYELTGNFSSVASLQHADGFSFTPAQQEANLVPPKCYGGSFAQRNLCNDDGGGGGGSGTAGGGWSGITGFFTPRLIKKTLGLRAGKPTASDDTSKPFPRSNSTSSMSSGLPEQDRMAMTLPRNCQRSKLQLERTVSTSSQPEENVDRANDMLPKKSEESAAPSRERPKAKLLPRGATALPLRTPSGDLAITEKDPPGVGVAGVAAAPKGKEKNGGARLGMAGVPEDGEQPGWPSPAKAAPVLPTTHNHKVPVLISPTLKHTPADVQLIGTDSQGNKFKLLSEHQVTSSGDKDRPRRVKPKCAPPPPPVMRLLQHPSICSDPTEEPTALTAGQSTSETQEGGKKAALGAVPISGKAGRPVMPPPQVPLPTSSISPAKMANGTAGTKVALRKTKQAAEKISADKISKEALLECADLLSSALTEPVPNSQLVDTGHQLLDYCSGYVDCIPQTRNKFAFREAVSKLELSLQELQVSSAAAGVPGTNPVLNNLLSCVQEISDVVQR

Set 1 — technique: competition with immobilised ligand; concentration: 1 µM; quantity: remaining binding
Structure (SMILES): O=S(=O)(NC1CCC(c2cc(F)ccc2F)(S(=O)(=O)c2ccc(Cl)cc2)CC1)C(F)(F)F (centres unmarked)
MAP kinase-activated protein kinase 2 (MAPKAPK2, Homo sapiens, UniProt P49137); cell-free assay: 93%
Homeodomain-interacting protein kinase 3 (HIPK3, Homo sapiens, UniProt Q9H422); cell-free assay: 100%
Tyrosine-protein kinase ABL2 (ABL2, Homo sapiens, UniProt P42684); cell-free assay: 100%
Serine/threonine-protein kinase LATS2 (LATS2, Homo sapiens, UniProt Q9NRM7); binding: 0%
Serine/threonine-protein kinase VRK2 (VRK2, Homo sapiens, UniProt Q86Y07); cell-free assay: 100%
Vascular endothelial growth factor receptor 2 (KDR, Homo sapiens, UniProt P35968); cell-free assay: 100%
Serine/threonine-protein kinase DCLK2 (DCLK2, Homo sapiens, UniProt Q8N568); cell-free assay: 94%
Dual specificity mitogen-activated protein kinase kinase 6 (MAP2K6, Homo sapiens, UniProt P52564); cell-free assay: 100%
Phosphatidylinositol 5-phosphate 4-kinase type-2 beta (PIP4K2B, Homo sapiens, UniProt P78356); cell-free assay: 68%

Set 2 — medium: plasma; route: oral; quantity: plasma concentration, mean
Structure (SMILES): COc1ccc(-c2c(Nc3ccccn3)[nH]c3c(C4=CCCCC4)c(-c4ccccc4)nn3c2=O)cc1
LC-MS/MS; human; 50 mg once daily, 0 h, cycle 1: 1090 ng/mL
cancer patients; 150 mg, 24 h post-dose, single dose: 801 ng/mL
LC-MS/MS; human; 200 mg twice daily, 3 h, single dose: 1580 ng/mL
human patients; 400 mg once daily, 2 h, cycle 1: 3710 ng/mL
human patients; 100 mg once daily, 24 h, cycle 1: 3540 ng/mL
cancer patients; 200 mg, 3 h post-dose, single dose: 1510 ng/mL
human patients; 400 mg once daily, 0 h, cycle 1: 3390 ng/mL
human patients; 200 mg once daily, 2 h, cycle 1: 7460 ng/mL

Set 3 — observed: enzyme activity; action: inhibitor; concentration: 0.5 µM; relative to: control; quantity: remaining activity
Compound: NC(=O)c1cccc(-c2cc(Nc3ccc(OC(F)(F)F)cc3)ncn2)c1
Ribosomal protein S6 kinase alpha-4 (RPS6KA4, Homo sapiens, UniProt O75676): 85.8%
Calcium/calmodulin-dependent protein kinase type IV (CAMK4, Homo sapiens, UniProt Q16566): 90.5%
Vascular endothelial growth factor receptor 2 (KDR, Homo sapiens, UniProt P35968): 99.8%
Mitogen-activated protein kinase 1 (MAPK1, Homo sapiens, UniProt P28482): 96.6%
Serine/threonine-protein kinase PAK 3 (PAK3, Homo sapiens, UniProt O75914): 100%
Serine/threonine-protein kinase Nek3 (NEK3, Homo sapiens, UniProt P51956): 121%
Tyrosine-protein kinase TXK (TXK, Homo sapiens, UniProt P42681): 111%
Serine/threonine-protein kinase MARK2 (MARK2, Homo sapiens, UniProt Q7KZI7): 90.8%
G protein-coupled receptor kinase 4 (GRK4, Homo sapiens, UniProt P32298): 94.8%
Discoidin domain-containing receptor 2 (DDR2, Homo sapiens, UniProt Q16832): 108%
Serine/threonine-protein kinase MRCK beta (CDC42BPB, Homo sapiens, UniProt Q9Y5S2): 93.2%
cGMP-dependent protein kinase 2 (PRKG2, Homo sapiens, UniProt Q13237): 96.4%
Mitogen-activated protein kinase 11 (MAPK11, Homo sapiens, UniProt Q15759): 105%

Set 4 — SMILES: O=C(Nc1ccccc1)Nc1cccc(Oc2ccc3nccn3n2)c1; concentration: 1 µM; quantity: remaining binding
Phosphatidylinositol 4,5-bisphosphate 3-kinase catalytic subunit alpha isoform (PIK3CA, Homo sapiens, UniProt P42336, E545K); competitive binding panel; relative to: vehicle: 99%
Insulin-like growth factor 1 receptor (IGF1R, Homo sapiens, UniProt P08069); competitive binding panel; relative to: vehicle: 100%
Serine/threonine-protein kinase LATS2 (LATS2, Homo sapiens, UniProt Q9NRM7); competitive binding panel; relative to: vehicle: 70%
Receptor-type tyrosine-protein kinase FLT3 (FLT3, Homo sapiens, UniProt P36888); competitive binding scan; autoinhibited form: 100%
Mitogen-activated protein kinase kinase kinase kinase 3 (MAP4K3, Homo sapiens, UniProt Q8IVH8); competitive binding panel; relative to: vehicle: 91%

A few entries again (set 2):
human patients; 400 mg once daily, 2 h, cycle 1: 3710 ng/mL
human patients; 100 mg once daily, 24 h, cycle 1: 3540 ng/mL
cancer patients; 200 mg, 3 h post-dose, single dose: 1510 ng/mL
human patients; 400 mg once daily, 0 h, cycle 1: 3390 ng/mL
